Experimental data pooled from the literature.
Compare with care: the assays were run in different laboratories.
RIOK2: Serine/threonine-protein kinase RIO2 (RIOK2, Homo sapiens, UniProt Q9BVS4)
UniProt P00519, sequence (whole entry, unmodified, looked up): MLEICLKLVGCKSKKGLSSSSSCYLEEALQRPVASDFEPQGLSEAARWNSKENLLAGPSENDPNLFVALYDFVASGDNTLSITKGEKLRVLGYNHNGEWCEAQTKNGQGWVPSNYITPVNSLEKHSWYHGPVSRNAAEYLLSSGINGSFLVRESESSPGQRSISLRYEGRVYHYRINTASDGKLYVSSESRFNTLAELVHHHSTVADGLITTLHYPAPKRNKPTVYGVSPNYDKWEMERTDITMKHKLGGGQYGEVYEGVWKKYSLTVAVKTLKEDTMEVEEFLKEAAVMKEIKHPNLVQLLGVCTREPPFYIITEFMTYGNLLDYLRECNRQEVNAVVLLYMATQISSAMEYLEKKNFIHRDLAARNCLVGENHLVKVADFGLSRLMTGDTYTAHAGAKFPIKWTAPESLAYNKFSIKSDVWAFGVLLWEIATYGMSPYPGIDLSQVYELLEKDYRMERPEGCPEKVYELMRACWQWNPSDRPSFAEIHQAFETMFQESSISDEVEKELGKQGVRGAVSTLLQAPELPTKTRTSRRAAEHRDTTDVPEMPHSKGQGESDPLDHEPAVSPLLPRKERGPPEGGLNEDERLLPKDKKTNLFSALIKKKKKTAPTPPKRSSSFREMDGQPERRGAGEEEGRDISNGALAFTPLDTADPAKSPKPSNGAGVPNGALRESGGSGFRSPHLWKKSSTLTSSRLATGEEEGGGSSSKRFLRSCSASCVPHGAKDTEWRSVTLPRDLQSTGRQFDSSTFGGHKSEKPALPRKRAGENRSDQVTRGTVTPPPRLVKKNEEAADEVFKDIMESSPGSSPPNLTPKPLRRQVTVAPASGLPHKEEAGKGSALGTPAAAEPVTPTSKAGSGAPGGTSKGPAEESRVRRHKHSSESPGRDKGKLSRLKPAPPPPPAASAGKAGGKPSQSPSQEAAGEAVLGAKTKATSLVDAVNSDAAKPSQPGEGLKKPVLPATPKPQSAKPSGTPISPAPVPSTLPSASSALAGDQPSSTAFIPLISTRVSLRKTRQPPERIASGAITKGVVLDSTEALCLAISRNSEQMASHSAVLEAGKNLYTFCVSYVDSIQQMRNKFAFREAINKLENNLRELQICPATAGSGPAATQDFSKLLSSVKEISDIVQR
UniProt Q9BVS4, sequence (whole entry, looked up): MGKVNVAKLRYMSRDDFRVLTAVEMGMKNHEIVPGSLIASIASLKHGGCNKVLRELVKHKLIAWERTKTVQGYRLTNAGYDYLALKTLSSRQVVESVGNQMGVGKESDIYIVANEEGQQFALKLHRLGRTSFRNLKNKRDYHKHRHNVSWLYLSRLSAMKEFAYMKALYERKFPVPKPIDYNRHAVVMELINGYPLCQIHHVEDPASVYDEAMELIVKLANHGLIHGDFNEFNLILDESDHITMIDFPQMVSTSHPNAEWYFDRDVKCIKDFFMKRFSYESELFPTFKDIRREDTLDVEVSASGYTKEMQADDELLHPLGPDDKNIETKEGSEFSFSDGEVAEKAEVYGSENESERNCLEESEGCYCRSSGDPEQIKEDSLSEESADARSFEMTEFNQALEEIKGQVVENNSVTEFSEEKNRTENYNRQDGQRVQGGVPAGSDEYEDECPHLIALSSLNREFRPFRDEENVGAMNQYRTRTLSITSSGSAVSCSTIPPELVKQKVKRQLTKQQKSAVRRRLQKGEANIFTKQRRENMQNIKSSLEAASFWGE
UniProt P25440, sequence (whole entry, looked up): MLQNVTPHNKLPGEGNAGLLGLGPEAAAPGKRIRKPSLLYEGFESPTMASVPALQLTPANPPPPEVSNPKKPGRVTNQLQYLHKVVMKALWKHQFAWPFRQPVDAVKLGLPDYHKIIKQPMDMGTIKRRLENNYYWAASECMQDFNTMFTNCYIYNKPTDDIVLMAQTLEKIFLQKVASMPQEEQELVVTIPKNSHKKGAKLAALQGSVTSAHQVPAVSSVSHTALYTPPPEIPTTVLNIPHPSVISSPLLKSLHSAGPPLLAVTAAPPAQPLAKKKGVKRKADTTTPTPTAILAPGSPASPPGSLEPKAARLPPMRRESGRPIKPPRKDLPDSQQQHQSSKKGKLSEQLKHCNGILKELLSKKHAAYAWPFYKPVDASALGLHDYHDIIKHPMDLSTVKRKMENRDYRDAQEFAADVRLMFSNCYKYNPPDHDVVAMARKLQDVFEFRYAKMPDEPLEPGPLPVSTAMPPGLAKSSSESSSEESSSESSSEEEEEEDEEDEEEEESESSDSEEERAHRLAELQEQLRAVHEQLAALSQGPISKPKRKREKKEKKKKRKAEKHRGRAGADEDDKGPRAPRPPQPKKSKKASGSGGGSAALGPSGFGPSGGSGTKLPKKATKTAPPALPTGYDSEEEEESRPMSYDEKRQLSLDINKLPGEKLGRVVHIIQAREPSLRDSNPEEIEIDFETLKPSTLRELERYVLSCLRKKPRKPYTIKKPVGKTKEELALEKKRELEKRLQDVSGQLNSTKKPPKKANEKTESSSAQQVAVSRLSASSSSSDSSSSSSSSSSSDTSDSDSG

`Nc1ncc(-c2cc(-c3cnn(CC(F)(F)F)c3)ncc2F)nc1C(=O)NC1CNCC(F)C1` (stereo not drawn) has a remaining binding of 66% (GRK1; KINOMEscan; 1 µM; relative to: DMSO control).
The remaining binding of `Cn1cc(-c2cc(N3CCCCS3(=O)=O)ccc2N[C@H]2CC[C@H](C)CC2)c2cc[nH]c2c1=O` (stereo in doubt) is reported as 0% (Bromodomain-containing protein 2, BD2 (BRD2, Homo sapiens, UniProt P25440); binding, competition with immobilised ligand; 1 µM).
Under “percent of control”, `C=CC(=O)Nc1cccc(Cn2ncc3cnc(Nc4cnn(CCOC)c4)nc32)c1` is recorded as 12% (FLT3 human; binding, KINOMEscan; 100 nM; lower = stronger binding).
For `CC(=O)N1c2ccc(-c3ccc(CNC(=O)c4cn5cc(-c6cnc(N)nc6)nc(N6CCOCC6)c5n4)cc3)cc2CC[C@@H]1C`, the remaining binding was 0% (Bromodomain testis-specific protein, BD1 (BRDT, Homo sapiens, UniProt Q58F21); binding, competition with immobilised ligand; 10 µM).
`C=CC(=O)N1CCc2ccc(-n3c(=O)ccc4cnc5ccc(-c6cnn(C)c6)cc5c43)cc21` gave a remaining binding of 91% (Tyrosine-protein kinase ABL1, phosphorylated (ABL1, Homo sapiens, UniProt P00519, F317L); KINOMEscan, item: (F317L)-phosphorylated; 1 µM; relative to: control).
`Cc1cnc2nc1Nc1cccc(c1)COC/C=C/COCc1cc(ccc1OCCN1CCOCC1)N2` gave a remaining binding of 51% (ABL1 (Homo sapiens, UniProt P00519, Q252H); 0.1 µM; relative to: DMSO control).
With `CN1CCN(Cc2ccc(NC(=O)c3cccc(C#Cc4cnc(N)c5ncccc45)c3)cc2C(F)(F)F)CC1` the remaining binding was 86% (RIOK2; cell-free assay, competition with immobilised ligand; 50 nM).
The remaining binding of `Cc1ccc(-c2c(/C=C(\C#N)C(=O)NC(C)C)n(CCCO)c3ncnc(N)c23)cc1` is reported as 100% (Tyrosine-protein kinase ABL1, phosphorylated (ABL1, Homo sapiens, UniProt P00519, T315I); cell-free assay, competition with immobilised ligand; 1 µM).
For `COc1cc(Nc2nccc(-c3cnn4nc(OC)ccc34)n2)cc(C(F)(F)F)c1`, the remaining binding was 95% (Tyrosine-protein kinase ABL1, non-phosphorylated (ABL1, Homo sapiens, UniProt P00519); binding, competition with immobilised ligand; 1 µM).
`Cc1cc(NC(=O)[C@H](O)c2cc(F)cc(F)c2)ccc1-c1cnc(N)c(C(=O)NC(C)C)c1` gave a remaining binding of 93% (RIOK2; binding, competition with immobilised ligand; 0.1 µM).
Under “log2 fold change”, `COC1CN([C@H]2CC[C@H]([C@@]3(C)Oc4c(Cl)cc(C(=O)NCc5c(SC)cc(C)[nH]c5=O)c(C)c4O3)CC2)C1` is recorded as 0.463 (RNA-seq, item: GAREM1 mouse homolog; mouse, HT-1376 xenograft, whole blood; dose not given; relative to: vehicle).
`Cc1ncsc1-c1ccc(C(C)NC(=O)C2CC(O)CN2C(=O)C(NC(=O)CCCCCCCCCCN2CCCC(Nc3ncc(Cl)c(Nc4ccccc4S(=O)(=O)C(C)C)n3)C2)C(C)(C)C)cc1` (stereo not drawn) — result for “log2 fold change”: -1.63 (22Rv1; RNA-seq, item: USP2 mRNA; concentration not given; relative to: DMSO).

A few entries again:
`Cc1cnc2nc1Nc1cccc(c1)COC/C=C/COCc1cc(ccc1OCCN1CCOCC1)N2` gave a remaining binding of 51% (ABL1 (Homo sapiens, UniProt P00519, Q252H); 0.1 µM; relative to: DMSO control).
